Measured values pooled from the literature.
Values joined by “and” are separate records of one study, mostly repeats; a detail may differ. ± gives the spread as reported.

COc1ccc(Nc2nc(Nc3ccc(OCCOCCOCC[18F])cc3)ncc2Br)cc1  tissue uptake (ICR mice, S180 tumour-bearing, bone; intravenous, 370 kBq, 5 min): 3.16 ± 0.16 %ID/g
CCCC[C@H](NC(=O)CNC(=O)CNC(=O)[C@H](CCCCNC(=O)[C@H](CC(=O)O)NC(=O)C(C)c1ccc(CC(C)C)cc1)NC(=O)CN1CCN(CC(=O)O)CCN(CC(=O)O)CCN(CC(=O)O)CC1)C(=O)N[C@H]1CC(=O)NCCCC[C@@H](C(N)=O)NC(=O)[C@H](Cc2c[nH]c3ccccc23)NC(=O)[C@H](CCCNC(=N)N)NC(=O)[C@@H](Cc2ccccc2)NC(=O)[C@H](Cc2c[nH]cn2)NC1=O (some centres unmarked) [lutetium-177 labelled]  tissue uptake (C57 mice, tumour-bearing, muscle; intravenous, 0.037 MBq, 24 h): 0.25 ± 0.13 %ID/g
CCCC[C@H](NC(=O)CCCCCCCNC(=O)CN1CCN(CC(=O)O)CCN(CC(=O)O)CC1)C(=O)N[C@H]1CC(=O)NCCCC[C@@H](C(N)=O)NC(=O)[C@H](Cc2c[nH]c3ccccc23)NC(=O)[C@H](CCCNC(=N)N)NC(=O)[C@@H](Cc2ccccc2)NC(=O)[C@H](Cc2c[nH]cn2)NC1=O [fluorine-18 labelled]  tissue uptake (C57 mice B16-F10 melanoma, stomach; intravenous, 0.37 MBq, 2 h): 0.65 ± 0.14 %ID/g
O=C(NCC1OC2CCC=CCCC2O1)c1ccc(COCCOCCOCC[18F])cc1 (centres unmarked)  tissue uptake (healthy female BALB/c nude mice, brain; intravenous, 7.4 MBq per mouse, 30 min): 2.5 ± 0.01 %ID/g
CC(C)C[C@H](NC(=O)[C@@H](CCCCNC(=O)[C@@H](Cc1ccccc1)NC(=O)CCCCCCCNC(=O)CN1CCN(CC(=O)O)CCN(CC(=O)O)CCN(CC(=O)O)CC1)NC(=O)[C@H](Cc1ccc(O)cc1)NC(=O)[C@H](CO)NC(=O)[C@H](Cc1c[nH]c2ccccc12)NC(=O)[C@H](Cc1c[nH]cn1)NC(=O)[C@@H]1CCC(=O)N1)C(=O)N[C@@H](CCCNC(=N)N)C(=O)N1CCC[C@H]1C(=O)NCC(N)=O [indium-111 labelled]  tissue uptake (biodistribution; male athymic nude mice, DU-145 prostate cancer xenograft, pancreas; intravenous, 0.037 MBq, 1 h post-injection): 0.32 ± 0.07 %ID/g
Cc1cc(C)n(CCN(CCN)CCCCCCNC(=O)[C@@H](N)Cc2c[nH]c3ccccc23)n1.[99Tc+].[C-]#[O+].[C-]#[O+].[C-]#[O+]  tissue uptake (BALB/c nude mice, A549 xenograft, intestine; intravenous, 15 min): 8.9 ± 1.56 %IA/g
CCCC[C@H](NC(=O)COCCOCCNC(=O)CN1CCN(CC(=O)O)CCN(CC(=O)O)CC1)C(=O)N[C@H]1CC(=O)NCCCC[C@@H](C(N)=O)NC(=O)[C@H](Cc2c[nH]c3ccccc23)NC(=O)[C@H](CCCNC(=N)N)NC(=O)[C@@H](Cc2ccccc2)NC(=O)[C@H](Cc2c[nH]cn2)NC1=O [fluorine-18 labelled]  tissue uptake (C57 mice, B16/F10 melanoma, skin; intravenous, 1 h, added: NDP-MSH 10 µg): 0.46 ± 0.14 %ID/g
COc1ccc2c(c1)C(C)(C)C(/C=C/C1=C(Oc3ccc(C(=O)NCCCCOc4cc(CN(Cc5ccccn5)Cc5ccccn5)cc(CN(Cc5ccccn5)Cc5ccccn5)c4)cc3)C(=C/C=C3/N(CCCCS(=O)(=O)[O-])c4ccc(OC)cc4C3(C)C)CCC1)=[N+]2CCCCS(=O)(=O)[O-].O=[N+]([O-])[O-].O=[N+]([O-])[O-].[99Tc+].[C-]#[O+].[C-]#[O+].[C-]#[O+].[Zn+2]  tissue uptake (healthy BALB/c mice, lungs; 12 h): 1.79 %ID/g and 1.31 %ID/g and 2.26 %ID/g and 1.36 %ID/g
O=C([O-])CN1CCN(CC(=O)[O-])CCN(CC(=O)NC[C@H]2CC[C@H](C(=O)N[C@H](Cc3cnc4ccccc4c3)C(=O)NCCCC[C@H](NC(=O)N[C@@H](CCC(=O)O)C(=O)O)C(=O)O)CC2)CCN(CC(=O)[O-])CC1.[64Cu+2]  tissue uptake (ex vivo gamma counting; 22Rv1 tumour-bearing mice, lung; intravenous, 0.74 MBq, 2 h post-injection): 9.84 %ID/g
O=C(NCC1OC2CCC=CCCC2O1)c1ccc([18F])nc1 (centres unmarked)  tissue uptake (healthy female BALB/c nude mice, blood; intravenous, 7.4 MBq per mouse, 10 min): 6.3 ± 1.8 %ID/g
Cc1cc(C)n(CCN(CCN)CCCCCCNC(=O)[C@@H](N)Cc2c[nH]cn2)n1.[99Tc+].[C-]#[O+].[C-]#[O+].[C-]#[O+]  tissue uptake (BALB/c nude mice, A549 xenograft, bone; intravenous, 24 h): 0.1 ± 0.01 %IA/g
CCCC[C@H](NC(=O)CNC(=O)CNC(=O)[C@H](CCCCNC(=O)[C@H](CC(N)=O)NC(=O)C(C)c1ccc(CC(C)C)cc1)NC(=O)CN1CCN(CC(=O)O)CCN(CC(=O)O)CCN(CC(=O)O)CC1)C(=O)N[C@H]1CC(=O)NCCCC[C@@H](C(N)=O)NC(=O)[C@H](Cc2c[nH]c3ccccc23)NC(=O)[C@H](CCCNC(=N)N)NC(=O)[C@@H](Cc2ccccc2)NC(=O)[C@H](Cc2c[nH]cn2)NC1=O (some centres unmarked) [lutetium-177 labelled]  tissue uptake (C57 mice, tumour-bearing, spleen; 2 h): 1.76 ± 0.39 %ID/g
COc1ccc(Nc2nc(Nc3ccc(OCCOCC[18F])cc3)ncc2Br)cc1  tissue uptake (ICR mice, S180 tumour-bearing, kidney; intravenous, 370 kBq, 60 min): 6.12 ± 0.12 %ID/g
N#C[C@@H]1CCCN1C(=O)CNC(=O)c1ccnc2ccc(OCCCN3CCN(C(=O)CCc4ccc5c(c4)CN4CCN6CC(=O)[O][68Ga-]([O]C(=O)C4)([O]5)[O]c4ccc(CCC(=O)N5CCN(CCCOc7ccc8nccc(C(=O)NCC(=O)N9CCC[C@H]9C#N)c8c7)CC5)cc4C6)CC3)cc12  tissue uptake (BALB/c nude mice, U-87 MG xenograft, bone; 1 h, blocking, added: DOTA-FAPI-04 40 nmol/mouse co-injected): 1.03 ± 0.44 %ID/g

Repeated from above:
N#C[C@@H]1CCCN1C(=O)CNC(=O)c1ccnc2ccc(OCCCN3CCN(C(=O)CCc4ccc5c(c4)CN4CCN6CC(=O)[O][68Ga-]([O]C(=O)C4)([O]5)[O]c4ccc(CCC(=O)N5CCN(CCCOc7ccc8nccc(C(=O)NCC(=O)N9CCC[C@H]9C#N)c8c7)CC5)cc4C6)CC3)cc12  tissue uptake (BALB/c nude mice, U-87 MG xenograft, bone; 1 h, blocking, added: DOTA-FAPI-04 40 nmol/mouse co-injected): 1.03 ± 0.44 %ID/g
